Experimental data gathered from unrelated publications.
± gives the spread as reported.

| Structure (SMILES) | assay | system | setting | tissue uptake |
| --- | --- | --- | --- | --- |
| C[C@H](O)[C@@H](NC(=O)[C@H]1CCCN1C(=O)[C@@H](CCCCN)NC(=O)[C@@H](CO)NC(=O)[C@@H](Cc1ccc(O)cc1)NC(=O)[C@@H](CC(N)=O)NC(=O)CCOCCOCCOCCNC(=O)CN1CCN(CC(=O)O)CCN(CC(=O)O)CCN(CC(=O)O)CC1)C(=O)N[C@H](CC(=O)O)C(=O)N[C@H](CCCNC(=N)N)C(=O)N[C@H](CCC(N)=O)C(=O)N[C@H](Cc1ccc(O)cc1)C(=O)N[C@H](Cc1c[nH]cn1)C(=O)N[C@H](Cc1ccccc1)C(N)=O [gallium-68 labelled] |  | BALB/c nude mice U-87 MG tumour, brain | intravenous, 1.85 MBq, 2 h, radiolabelled | 0.02 ± 0.01 %ID/g |
| CC[C@H](C)[C@H](NC(=O)[C@H](CCCNC(=N)N)NC(=O)[C@H](CCCCN)NC(=O)[C@H](Cc1ccc(O)cc1)NC(=O)[C@H](CC(=O)O)NC(=O)[C@H](C)NC(=O)CNC(=O)CCOCCOCCOCCNC(=O)CN1CCN(CC(=O)O)CCN(CC(=O)O)CCN(CC(=O)O)CC1)C(=O)N[C@H](C(=O)N[C@@H](CC(C)C)C(=O)N[C@@H](CCCCN)C(=O)N[C@H](C(=O)N[C@@H](CC(N)=O)C(N)=O)C(C)C)[C@@H](C)O [copper-64 labelled] | ex vivo gamma counting | C57BL/6J male mice, B16-F10 tumour, heart | intravenous, 1.85 MBq, 40 min | 0.529 ± 0.088 %ID/g |
| CSCC[C@H](NC(=O)CNC(=O)[C@H](CCCCN)NC(=O)[C@H](CC(C)C)NC(=O)[C@@H]1CCCN1C(=O)[C@H](CO)NC(=O)[C@H](Cc1c[nH]cn1)NC(=O)[C@H](Cc1c[nH]c2ccccc12)NC(=O)[C@H](CCCNC(=N)N)NC(=O)[C@H](CC(C)C)NC(=O)[C@H](CCCNC(=N)N)NC(=O)[C@H](Cc1c[nH]c2ccccc12)NC(=O)[C@H](CS)NC(=O)CCCCCNC(=O)CN1CCN(CC(=O)O)CCN(CC(=O)O)CCN(CC(=O)O)CC1)C(=O)O [copper-64 labelled] | PET imaging | BALB/c nude mice, tumor | intravenous, dose not given, 18 h, Huh-7 tumour-bearing | 3.45 ± 0.41 %ID/g |
| CC[C@H](C)[C@H](NC(=O)[C@H](CCCNC(=N)N)NC(=O)[C@H](CCCCN)NC(=O)[C@H](Cc1ccc(O)cc1)NC(=O)[C@H](CC(=O)O)NC(=O)[C@H](C)NC(=O)CNC(=O)CCOCCOCCOCCNC(=O)CN1CCN(CC(=O)O)CCN(CC(=O)O)CCN(CC(=O)O)CC1)C(=O)N[C@H](C(=O)N[C@H](C(=O)N[C@@H](CCCCN)C(=O)N[C@H](C(=O)N[C@@H](CC(N)=O)C(N)=O)C(C)C)C(C)C)[C@@H](C)O [copper-64 labelled] | ex vivo gamma counting | C57BL/6J male mice, B16-F10 tumour, heart | intravenous, 1.85 MBq, 20 min | 1.16 ± 0.136 %ID/g |
| CC[C@H](C)[C@H](NC(=O)[C@H](CCCCN)NC(=O)CNC(=O)[C@H](CC(C)C)NC(=O)[C@H](Cc1ccccc1)NC(=O)[C@H](CCCCN)NC(=O)[C@H](CO)NC(=O)[C@H](Cc1ccccc1)NC(=O)[C@H](Cc1c[nH]c2ccccc12)NC(=O)[C@H](CCC(N)=O)NC(=O)[C@@H](NC(=O)[C@H](Cc1ccccc1)NC(=O)CCCCCNC(=O)CN1CCN(CC(=O)O)CCN(CC(=O)O)CCN(CC(=O)O)CC1)C(C)C)C(=O)N[C@@H](CCC(=O)O)C(=O)N1CCC[C@H]1C(=O)N[C@@H](CC(=O)O)C(=O)N[C@H](C(=O)N[C@@H](CO)C(=O)N[C@@H](CCC(N)=O)C(=O)N[C@H](C(=O)N[C@@H](CCC(N)=O)C(=O)N[C@@H](CC(=O)O)C(=O)N1CCC[C@H]1C(=O)N[C@@H](CC(N)=O)C(=O)N[C@@H](CC(=O)O)C(=O)N[C@@H](CCC(N)=O)C(=O)N[C@@H](Cc1ccc(O)cc1)C(=O)N[C@@H](CCC(=O)O)C(=O)N1CCC[C@H]1C(=O)N[C@@H](Cc1ccccc1)C(=O)O)C(C)C)C(C)C [copper-64 labelled] |  | C57BL/6 mice, male, naive, brown fat | 2 h | 2.93 ± 0.5 %ID/g |
| CC[C@H](C)[C@H](NC(=O)[C@@H](Cc1c[nH]c2ccccc12)NC(=O)[C@@H]1CCCN1C(=O)[C@H](CCCCN)NC(=O)[C@H](CCCCN)NC(=O)CCNC(=O)CCNC(=O)CN1CCN(CC(=O)O)CCN(CC(=O)O)CCN(CC(=O)O)CC1)C(=O)N[C@@H](C[Si](C)(C)C)C(=O)O [gallium-68 labelled] | ex vivo biodistribution | nude mice, HT-29 xenograft, lungs | 90 min, added: levocabastine 0.5 µmol | 0.63 ± 0.13 %ID/g |
| CC(C)C[C@@H](NC(=O)[C@@H](CCCNC(=N)N)NC(=O)[C@@H](Cc1c[nH]cn1)NC(=O)[C@@H](Cc1c[nH]c2ccccc12)NC(=O)[C@@H](Cc1c[nH]cn1)NC(=O)[C@@H](Cc1ccccc1)NC(=O)[C@H](NC(=O)[C@@H](Cc1ccc(O)cc1)NC(=O)CNC(=O)CNC(=O)CCOCCOCCOCCNC(=O)CN1CCN(CC(=O)O)CCN(CC(=O)O)CC1)[C@H](C)O)C(=O)N[C@H](CC(N)=O)C(=O)N1CCC[C@@H]1C(=O)O [gallium-68 labelled] | gamma counting | C57BL/6 mice, male, muscle | intravenous, 1.85 MBq, 60 min | 0.45 ± 0.06 %ID/g |
| CCCC[C@H]1C(=O)N(C)[C@@H](CCCC)C(=O)N[C@@H](CCCNC(=O)CN2CCN(CC(=O)O)CCN(CC(=O)O)CCN(CC(=O)O)CC2)C(=O)N[C@H](C(=O)NCC(N)=O)CSCC(=O)N[C@@H](Cc2ccc(O)cc2)C(=O)N(C)[C@@H](C)C(=O)N[C@@H](CC(N)=O)C(=O)N2CCC[C@H]2C(=O)N[C@@H](Cc2c[nH]cn2)C(=O)N[C@@H](CC(C)C)C(=O)N(C)CC(=O)N[C@@H](Cc2c[nH]c3ccccc23)C(=O)N[C@@H](CO)C(=O)N[C@@H](Cc2c[nH]c3ccccc23)C(=O)N1C [gallium-68 labelled] |  | NOD/SCID mice with CHO-hPD-L1 xenograft, spleen | 60 min post injection | 6.28 ± 1.91 %ID/g |

Repeated from above:
| Structure (SMILES) | assay | system | setting | tissue uptake |
| --- | --- | --- | --- | --- |
| CCCC[C@H]1C(=O)N(C)[C@@H](CCCC)C(=O)N[C@@H](CCCNC(=O)CN2CCN(CC(=O)O)CCN(CC(=O)O)CCN(CC(=O)O)CC2)C(=O)N[C@H](C(=O)NCC(N)=O)CSCC(=O)N[C@@H](Cc2ccc(O)cc2)C(=O)N(C)[C@@H](C)C(=O)N[C@@H](CC(N)=O)C(=O)N2CCC[C@H]2C(=O)N[C@@H](Cc2c[nH]cn2)C(=O)N[C@@H](CC(C)C)C(=O)N(C)CC(=O)N[C@@H](Cc2c[nH]c3ccccc23)C(=O)N[C@@H](CO)C(=O)N[C@@H](Cc2c[nH]c3ccccc23)C(=O)N1C [gallium-68 labelled] |  | NOD/SCID mice with CHO-hPD-L1 xenograft, spleen | 60 min post injection | 6.28 ± 1.91 %ID/g |
